{"data": "Published values from different studies", "note": "Parts stem from different laboratories: compare values within a part only."}
{"data": "Series 1", "target": "PABPC1L2, full length, GST fusion (mouse, UniProt A0ABA7IW68)", "technique": "RNAcompete", "molecule type": "RNA", "sample": "in vitro", "concentration": "20 nM", "setting": "7-mer, probes averaged, single round", "reference": "mean of 7-mers", "direction": "higher = stronger binding", "Target sequence (chain)": "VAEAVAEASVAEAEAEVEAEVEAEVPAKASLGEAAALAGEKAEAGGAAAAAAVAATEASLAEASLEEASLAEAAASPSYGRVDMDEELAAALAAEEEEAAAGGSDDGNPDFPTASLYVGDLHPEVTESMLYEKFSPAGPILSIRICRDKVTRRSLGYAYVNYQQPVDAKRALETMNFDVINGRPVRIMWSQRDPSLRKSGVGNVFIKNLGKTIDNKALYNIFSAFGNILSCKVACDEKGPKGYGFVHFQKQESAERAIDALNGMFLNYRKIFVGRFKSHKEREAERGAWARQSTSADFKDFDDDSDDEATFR"}
{"Oligonucleotide": "UCGCAAA", "7-mer Z-score": 0.486}
{"Oligonucleotide": "GCGUUCG", "7-mer Z-score": -0.255}
{"Oligonucleotide": "GACUGGU", "7-mer Z-score": -0.238}
{"Oligonucleotide": "GCGAGGU", "7-mer Z-score": 0.108}
{"Oligonucleotide": "UGAGCGC", "7-mer Z-score": -0.269}
{"Oligonucleotide": "ACUAAUA", "7-mer Z-score": -0.0826}
{"Oligonucleotide": "CUUAUAC", "7-mer Z-score": -0.32}
{"Oligonucleotide": "CGAUUCG", "7-mer Z-score": -0.385}
{"Oligonucleotide": "UUCUUAA", "7-mer Z-score": -0.209}
{"Oligonucleotide": "CGCGAAU", "7-mer Z-score": -0.137}
{"Oligonucleotide": "UAGAUUC", "7-mer Z-score": -0.258}
{"Oligonucleotide": "AGUACAG", "7-mer Z-score": -0.124}
{"Oligonucleotide": "AUGAGUG", "7-mer Z-score": -0.0989}
{"Oligonucleotide": "CGCACAA", "7-mer Z-score": -0.0192}
{"Oligonucleotide": "GGGUCCG", "7-mer Z-score": 0.115}
{"Oligonucleotide": "AUAGCGU", "7-mer Z-score": -0.199}
{"Oligonucleotide": "CUUUCGG", "7-mer Z-score": -0.344}
{"Oligonucleotide": "AAGUUUU", "7-mer Z-score": -0.204}
{"Oligonucleotide": "CUAGUAU", "7-mer Z-score": -0.226}
{"Oligonucleotide": "CGUGCAG", "7-mer Z-score": -0.0917}
{"Oligonucleotide": "AAAAAAC", "7-mer Z-score": 24}
{"Oligonucleotide": "AGUGGGG", "7-mer Z-score": 0.45}
{"data": "Series 2", "target": "Prothrombin, mature alpha-thrombin (F2, Homo sapiens, UniProt P00734)", "technique": "aptamer microarray, sandwich", "molecule type": "DNA with 2'F-ANA", "sample": "in vitro", "concentration": "200 nM", "setting": "whole 15-mer aptamer, many near background", "added": "Cy3 exosite-II aptamer, 400 nM", "direction": "higher = stronger binding", "oligonucleotide": "GGTTGGTGTGGTTGG"}
{"Modification": "2'F-ANA at 1 2 3 4 7 8 10 12 13 14", "mean fluorescence intensity": "49 a.u."}
{"Modification": "2'F-ANA at 2 7 8 9 10 13 15", "mean fluorescence intensity": "126 a.u."}
{"Modification": "2'F-ANA at 2 4 5 7 8 14", "mean fluorescence intensity": "46.8 a.u."}
{"Modification": "2'F-ANA at 2 6 11 13 14", "mean fluorescence intensity": "102 a.u."}
{"Modification": "2'F-ANA at 2 3 4 5 7 8 9 10 12 13 14", "mean fluorescence intensity": "56.1 a.u."}
{"Modification": "2'F-ANA at 4 6 7 8 9 11 12 13", "mean fluorescence intensity": "319 a.u."}
{"Modification": "2'F-ANA at 1 2 4 7 9 10 13", "mean fluorescence intensity": "43.5 a.u."}
{"Modification": "2'F-ANA at 3 7 13 14 15", "mean fluorescence intensity": "680 a.u."}
{"Modification": "2'F-ANA at 2 3 6 8 15", "mean fluorescence intensity": "761 a.u."}
{"Modification": "2'F-ANA at 1 3 6 7", "mean fluorescence intensity": "290 a.u."}
{"Modification": "2'F-ANA at 4 6 12 13 14", "mean fluorescence intensity": "96.6 a.u."}
{"Modification": "2'F-ANA at 1 2 3 5 6 10 11 13 15", "mean fluorescence intensity": "50.1 a.u."}
{"Modification": "2'F-ANA at 3 6 8 9 11 15", "mean fluorescence intensity": "828 a.u."}
{"Modification": "2'F-ANA at 1 3 5 6 8 10 11 12 13 14 15", "mean fluorescence intensity": "49.2 a.u."}
{"Modification": "2'F-ANA at 2 3 7 8 12 14 15", "mean fluorescence intensity": "543 a.u."}
{"Modification": "2'F-ANA at 3 5 6 9 14", "mean fluorescence intensity": "48.5 a.u."}
{"Modification": "2'F-ANA at 1 4 8 11 13 15", "mean fluorescence intensity": "202 a.u."}
{"Modification": "2'F-ANA at 1 4 5 6 9 12 13 14", "mean fluorescence intensity": "65.1 a.u."}
{"Modification": "2'F-ANA at 1 4 6 7 12 13 15", "mean fluorescence intensity": "178 a.u."}
{"Modification": "2'F-ANA at 2 6 8 10 13 15", "mean fluorescence intensity": "97.4 a.u."}
{"Modification": "2'F-ANA at 1 2 7 9 10 12 13", "mean fluorescence intensity": "251 a.u."}
{"data": "Series 3", "target": "Interferon regulatory factor 5, full length, phosphomimetic (IRF5, Homo sapiens, UniProt Q13568-2, residues 1-514, S451D/S453D/S456D/S462D)", "technique": "protein-binding microarray", "molecule type": "double-stranded DNA, one strand shown", "sample": "in vitro", "concentration": "940 nM top", "setting": "60-bp whole probe", "added": "salmon DNA 0.4 mg/ml", "reference": "random background probes", "direction": "higher = stronger binding", "shared flanks, not repeated": "GCCTAGCAC … GTCTTGATTCGCTTGACGCTGCTG"}
{"Oligonucleotide": "GACGATTTGGGGACTGGAGACGTGCTA", "fitted relative affinity [z-score]": 0.0561}
{"Oligonucleotide": "TCATGTCTCAGAGTCCTACTGTGCTAG", "fitted relative affinity [z-score]": 0.204}
{"Oligonucleotide": "TTAGGTATCGACCATCGGTTAGTGCTA", "fitted relative affinity [z-score]": 4.94}
{"Oligonucleotide": "TCACATTTTCGTTTTGTACTGTGCTAG", "fitted relative affinity [z-score]": 2.26}
{"Oligonucleotide": "TTTTTTTTCTTTAAAAGTGAGTGCTAG", "fitted relative affinity [z-score]": 0.378}
{"Oligonucleotide": "TCATTCTTGCATCTGGGACTGTGCTAG", "fitted relative affinity [z-score]": 0.337}
{"Oligonucleotide": "GAAGGTCTCCTACTGCTGACGTGCTAG", "fitted relative affinity [z-score]": 0.00211}
{"Oligonucleotide": "TCATTTTTTTTTTTTACACTGTGCTAG", "fitted relative affinity [z-score]": 1.76}
{"Oligonucleotide": "TGAGAACTGGGGTATCGATTAGTGCTA", "fitted relative affinity [z-score]": 3.1}
{"Oligonucleotide": "GCTGCCCTCACCATCATCCTGTGCTAG", "fitted relative affinity [z-score]": 0.52}
{"Oligonucleotide": "GACGGTTTCCTTATGCTGACGTGCTAG", "fitted relative affinity [z-score]": 1.23}
{"Oligonucleotide": "GACGAACTGATTATCGAGACGTGCTAG", "fitted relative affinity [z-score]": -0.262}
{"Oligonucleotide": "TTAGAACTGAGACTGGACTAGTGCTAG", "fitted relative affinity [z-score]": -0.182}
{"Oligonucleotide": "GACGATCTCAGTATCGAGGCGTGCTAG", "fitted relative affinity [z-score]": 1.61}
{"Oligonucleotide": "TCGGTGATCAGTCTGATGGTGTGCTAG", "fitted relative affinity [z-score]": 0.168}
{"Oligonucleotide": "TTTCACACTGTCCAGCAGGTGTGCTAG", "fitted relative affinity [z-score]": 3.69}
{"Oligonucleotide": "TTAGGTCTCGGTATCGGTAAGTGCTAG", "fitted relative affinity [z-score]": 6.98}
{"Oligonucleotide": "GACGATCTCACTCTCGAGACGTGCTAG", "fitted relative affinity [z-score]": 1.78}
{"Oligonucleotide": "GACGGTTACCTTTCCCTGACGTGCTAG", "fitted relative affinity [z-score]": 0.687}
{"data": "Series 4", "target": "Ras GTPase-activating protein-binding protein 1, full length (G3BP1, Homo sapiens, UniProt Q13283)", "technique": "RNA Bind-n-Seq", "molecule type": "RNA", "sample": "in vitro", "concentration": "200 nM", "setting": "whole 134-nt RNA, ends assumed", "added": "150 mM KCl", "reference": "input library", "direction": "higher = stronger binding", "shared flanks, not repeated": "GGGAGUUCUACAGUCCGACGAUC … UGGAAUUCUCGGGUGUCAAGG", "sequence of UniProt Q13283 (whole entry, looked up)": "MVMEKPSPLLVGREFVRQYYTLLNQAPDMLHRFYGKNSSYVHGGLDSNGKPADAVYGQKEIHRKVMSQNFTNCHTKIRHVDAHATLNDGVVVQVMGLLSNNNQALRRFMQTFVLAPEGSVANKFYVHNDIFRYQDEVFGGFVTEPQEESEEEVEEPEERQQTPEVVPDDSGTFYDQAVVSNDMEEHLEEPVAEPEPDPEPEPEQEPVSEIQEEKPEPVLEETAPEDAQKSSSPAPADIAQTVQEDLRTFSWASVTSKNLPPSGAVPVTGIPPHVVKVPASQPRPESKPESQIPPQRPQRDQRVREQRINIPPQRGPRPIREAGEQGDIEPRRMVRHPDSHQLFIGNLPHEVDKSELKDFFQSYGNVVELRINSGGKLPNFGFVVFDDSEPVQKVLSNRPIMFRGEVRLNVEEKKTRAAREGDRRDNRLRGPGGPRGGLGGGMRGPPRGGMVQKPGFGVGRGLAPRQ"}
{"Oligonucleotide": "UGGGAGGUGGAUUUUGUUUAUUUUUUUAGCUCAUUUCCAGGGGUGGGAAUUUUUUUUUAAUAUGUGUCAUGAAUAGAGUUGUUUUUGAAA", "log2 enrichment": 0.269}
{"Oligonucleotide": "GCAGGAAGUAAAAACAAAUGGAAAUGCUUCGGAUAGUGGCAGGGGUGGGGGUUGCUAAGGAAAGGGUGGGAUGGGAGUGGGUAAAAAGUU", "log2 enrichment": 0.381}
{"Oligonucleotide": "AGUCCUGUGCUACACAUCGUAUGUACCGAAUCGGAAAAGGGAAAAGGGGAAAAGGGGAAAGUAUUAUGUUACGCCGUUCGGAUCUGCACU", "log2 enrichment": -0.244}
{"Oligonucleotide": "UAACUUUAGAGGAGGAUCUGAUGGAUAUGGCAGGGGACGUGGAUUUGGGGAUGGCUAUAAUGGGUAUGGAGGAGGACCUGGAGGUGGCAA", "log2 enrichment": 0.605}
{"Oligonucleotide": "UCAAGUCCUGUGCUACACAUCGUAUGUACCGAAUCGGAAAGGUUUGGUUUUUGGAAAGUAUUAUGUUACGCCGUUCGGAUCUGCACUUCC", "log2 enrichment": -0.785}
{"Oligonucleotide": "AAGUCCUGUGCUACACAUCGUAUGUACCGAAUCGGGGUGGGGUUUUUGGGGUGGGGAAAGUAUUAUGUUACGCCGUUCGGAUCUGCACUU", "log2 enrichment": 0.367}
{"Oligonucleotide": "CCUCAAGUCCUGUGCUACACAUCGUAUGUACCGAAUCGGAGGGGAGGGGAGGAAAGUAUUAUGUUACGCCGUUCGGAUCUGCACUUCCAG", "log2 enrichment": 0.49}
{"Oligonucleotide": "UUUUGCAUUUAGGGUUUUAACCAAGAAGAUCUGGAAGAAGAAAAAGGUGAAACACAGGUAAAAGAAGCAGAAGAUUCAGAUUCUGAUGAU", "log2 enrichment": -2.23}
{"Oligonucleotide": "UAACUUUAGAGGAGGAUCUGAUGGAUAUGGCAGUGGACGUGGAUUUGGGGAUGGCUAUAAUGGGUAUGGAGGAGGACCUGGAGGUGGAAA", "log2 enrichment": 0.274}
